Experimental data of several laboratories.
Lines come from different studies, so protocols differ.
Target: 5-hydroxytryptamine receptor 2C (HTR2C, Homo sapiens, UniProt P28335)
Residues used in one study (P28335 33-458): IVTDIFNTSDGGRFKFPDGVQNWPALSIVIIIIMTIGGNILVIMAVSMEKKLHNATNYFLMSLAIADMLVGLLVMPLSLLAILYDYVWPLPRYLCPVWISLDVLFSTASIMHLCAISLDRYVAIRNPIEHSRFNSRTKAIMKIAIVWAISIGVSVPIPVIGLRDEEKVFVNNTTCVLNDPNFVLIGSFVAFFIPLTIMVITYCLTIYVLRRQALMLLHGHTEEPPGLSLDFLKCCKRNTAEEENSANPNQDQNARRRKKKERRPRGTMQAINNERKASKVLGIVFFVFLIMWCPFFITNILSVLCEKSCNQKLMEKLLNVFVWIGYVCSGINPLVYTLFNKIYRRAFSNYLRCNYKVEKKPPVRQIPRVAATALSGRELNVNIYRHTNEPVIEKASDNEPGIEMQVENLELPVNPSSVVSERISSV

COc1ccc(S(=O)(=O)N2CCc3ccccc3C2)cc1N1CCN(C(=O)c2ccc(F)cc2C(F)(F)F)CC1
inhibition (binding, radioligand binding, agonist site; 1 µM): 11.7%

Brc1ccccc1-c1nnc(CSc2nnnn2-c2ccccc2)o1
inhibition (ligand displacement, radioligand; 10 µM): 19%

CC1Cc2ccccc2N1C(=O)CN1CCN(Cc2ccccc2)CC1 (stereo not drawn)
inhibition (radioligand binding; concentration not given, with: [3H]mesulergine): 0.3%

C[Si](C)(C)C[C@H](CN)CC(=O)O
inhibition (ligand displacement, radioligand; 250 µM): -9%

COc1ccc(C(=O)Nc2c(-c3cccs3)nc3ccccn23)cc1
inhibition (ligand displacement, radioligand; 10 µM): < 50%

Cc1ccnc(OC[C@H]2CN(CCN3CCc4ccccc43)CCO2)c1
inhibition (radioligand binding; concentration not given, with: [3H]mesulergine): 10.5%

C[Si]1(C[C@H](CN)CC(=O)O)CCCC1
inhibition (ligand displacement, radioligand; 70 µM): -4%

CC1Cc2ccccc2N1C(=O)CN1CCN(c2ccccc2)CC1 (stereo not drawn)
inhibition (radioligand binding; concentration not given, with: [3H]mesulergine): 10.5%

O=C1c2sc(-c3ccc(N4CCC(F)C4)nc3F)nc2CCN1c1cccnc1 (stereo not drawn)
inhibition (ligand displacement, radioligand; 1 µM): -6%

For quick reference, copied from above:
Cc1ccnc(OC[C@H]2CN(CCN3CCc4ccccc43)CCO2)c1
inhibition (radioligand binding; concentration not given, with: [3H]mesulergine): 10.5%
